Measured values pooled from the literature.
Each line is one published result; not all experiments were run side by side. Values joined by “and” are separate records of one study, mostly repeats; a detail may differ.
JAK3: Tyrosine-protein kinase JAK3 (JAK3, Homo sapiens, UniProt P52333)
JAK3 JH1: Tyrosine-protein kinase JAK3, JH1 (JAK3, Homo sapiens, UniProt P52333)

With `C=CC(=O)N1CCc2ccc(-n3c(=O)ccc4cnc5ccc(-c6cnn(C)c6)cc5c43)cc21` the remaining binding was 60% (JAK3; KINOMEscan; 1 µM; relative to: DMSO control).
With `Cc1cnc2nc1Nc1cccc(c1)COC/C=C/COCc1cc(ccc1OCCN1CCOCC1)N2` the remaining signal was 9.6% (JAK3 JH1; cell-free assay; 0.1 µM).
With `COc1ccc(O)cc1-c1c[nH]c2ncc(-c3cncc(C(=O)N(C)C)c3)cc12` the inhibition was 69.3% (JAK3; binding, competition with immobilised ligand; 0.2 µM).
The remaining activity of `O=C=[N][Ru-4]123([n]4c5ccc(O)cc5c5c6c(c7cc(F)c[n+]1c7c54)C(=O)NC6=O)[S+]1CC[S+]2CC[S+]3CC1` (stereo not drawn) is reported as 103% (JAK3; enzyme activity; 100 nM, human enzyme, with: 10 µM ATP; relative to: untreated).
`CN1CCN(Cc2ccc(NC(=O)c3cccc(C#Cc4cnc(N)c5ncccc45)c3)cc2C(F)(F)F)CC1` gave a remaining binding of 16% (JAK3 JH1; cell-free assay, competition with immobilised ligand; 50 nM).
With `Nc1ncc2c(n1)-c1c([nH]c3ccc(C4=CCOCC4)cc13)CCC2` the remaining binding was 97% (JAK3 JH1; binding, competition with immobilised ligand; 1 µM).
For `NC(=O)C[C@H]1CCc2sc3ncnc(O[C@H]4CC[C@H](N5CCOCC5)CC4)c3c21`, the inhibition was 10% (JAK3; enzyme activity, inhibitor; 10 µM).
`O=C(Nc1ccc(Oc2ncnc3[nH]cc(-c4ccccc4)c23)c(F)c1)c1c2n(n(-c3cc(F)ccc3F)c1=O)CCCC2` has an inhibition of 12% (JAK3; enzyme activity, inhibitor; 0.5 µM).
For `C=CC(=O)Nc1cccc(-c2cnc3[nH]cc(C(=O)NC(C)(C)C)c3n2)c1`, the inhibition was 99% (JAK3; kinase activity; 0.1 µM).
For `CNC(=O)C[C@H](Cc1ccc(C#N)cc1)NC(=O)c1cc(-c2ccc(CN[C@H](C)c3ccc(C)cc3)o2)ccc1Cl`, “activity vs control” read 104% (JAK3; enzyme activity, inhibitor; 1 µM).
For `CN1CC[C@@H](COc2cnc(C#N)cc2-c2ccn3nc(NC(=O)C4CC4)cc3c2)C1`, the inhibition was 28% (JAK3; enzyme activity, inhibitor; 1 µM).
The remaining activity of `COCC12C(=O)NC3C4(C(OC)CC1O)C1CC5(O)C(OC)C(O)C(OC(C)=O)(C1C5OC(=O)c1ccccc1)C3(O)C(OC)C24` (stereo not drawn) is reported as 105% and 102% (JAK3; kinase activity, inhibitor, ProQinase kinase profiling; 25 µM; relative to: control).
`CC(=O)N1c2ccc(-c3ccc(CNC(=O)c4cn5cc(-c6cnc(N)nc6)nc(N6CCOCC6)c5n4)cc3)cc2CC[C@@H]1C` has a remaining binding of 100% (JAK3; KINOMEscan; 10 µM).
For `COc1c(Cl)cccc1Nc1c(-c2ccncc2C#C[C@@]2(C)CCCN2C(=O)/C=C/CN(C)C)[nH]c2c1C(=O)NCC2`, the remaining binding was 75% (JAK3 JH1; cell-free assay, competition with immobilised ligand; 3 µM).
`COc1ccc(NC(=O)Nc2ccc3c(c2)C(=O)N(C(C)CO)CC(C)C(CN(C)Cc2ccc4c(c2)OCO4)O3)cc1` (stereo not drawn) gave a remaining binding of 66% (JAK3 JH1; binding, competition with immobilised ligand; 10 µM).
`Cc1c[nH]c2nccc(-c3ccc(C(=O)N[C@@H]4c5c(F)cc(C(F)F)cc5C[C@@H]4O)cn3)c12` has a remaining binding of 7% (JAK3 JH1; binding, competition with immobilised ligand; 3 µM).
With `CC(C)=CC1OC(C)(C)C2C=C3C(=O)C(Cl)=CC(O)C3C3C(O)C4OC4C(=O)C132` (stereo not drawn) the remaining binding was 66% (JAK3 JH1; cell-free assay, competition with immobilised ligand; 10 µM).
`CCN1CCN(Cc2ccc(NC(=O)c3ccc(C)c(NC(=O)c4cncc(-c5cccs5)c4)c3)cc2C(F)(F)F)CC1` gave a remaining binding of 33% (JAK3; KinomeScan; 1 µM).
The remaining activity of `Nc1ncc(-c2cc(-c3cnn(CC(F)(F)F)c3)ncc2F)nc1C(=O)NC1CNCC(F)C1` (stereo not drawn) is reported as 98.5% (JAK3; enzyme activity; 1 µM; relative to: DMSO control).
`CCN1CCN(Cc2ccc(C(=O)Nc3ccc(C)c(NCc4cnc5[nH]ccc5c4OC)c3)cc2C(F)(F)F)CC1` gave a remaining binding of 12% (JAK3 JH1; binding, competition with immobilised ligand; 1 µM).
`Cc1cccc(O[C@H]2CCC[C@@H](C(C)CNCc3ccncc3)C2)c1` (relative stereo) has an inhibition of -4% (JAK3; enzyme activity, inhibitor; 10 µM).

Excerpt of the above:
`Cc1c[nH]c2nccc(-c3ccc(C(=O)N[C@@H]4c5c(F)cc(C(F)F)cc5C[C@@H]4O)cn3)c12` has a remaining binding of 7% (JAK3 JH1; binding, competition with immobilised ligand; 3 µM).
With `CC(C)=CC1OC(C)(C)C2C=C3C(=O)C(Cl)=CC(O)C3C3C(O)C4OC4C(=O)C132` (stereo not drawn) the remaining binding was 66% (JAK3 JH1; cell-free assay, competition with immobilised ligand; 10 µM).
`CCN1CCN(Cc2ccc(NC(=O)c3ccc(C)c(NC(=O)c4cncc(-c5cccs5)c4)c3)cc2C(F)(F)F)CC1` gave a remaining binding of 33% (JAK3; KinomeScan; 1 µM).
